Assay results gathered from unrelated publications.
A part holds a random share of what one study measured. Several values in a cell are separate wells, animals, samples, runs or records.

Series 1
Organism: Sarcocystis neurona
Observed: parasite growth
Strain: GFP/luciferase reporter
Tested at: 10 µM
Notes: hit confirmation screen
The inhibition of `CN1CCCC(n2nc(Cc3ccc(Cl)cc3)c3ccccc3c2=O)CC1` (stereo not drawn) is reported as 99%.
With `Oc1c(Cl)cc(Cl)c(Cl)c1Cc1c(O)c(Cl)cc(Cl)c1Cl` the inhibition was 97.1%.
`[H]/N=C(/NCCCCC)N/N=C/c1c[nH]c2ccc(OC)cc12` has an inhibition of 99.9%.
With `CC(=O)[C@]1(O)Cc2c(O)c3c(c(O)c2[C@@H](O[C@H]2C[C@H](N)[C@H](O)[C@H](C)O2)C1)C(=O)c1ccccc1C3=O` the inhibition was 99.8%.
`Oc1c(Cl)cc(Cl)c2cccnc12` has an inhibition of 99.5%.
For `CN1CCN(CC/C=C2/c3ccccc3Sc3ccc(S(=O)(=O)N(C)C)cc32)CC1`, the inhibition was 94%.

Series 2
Cell line: mouse MPNST tumor cells
Method: high-content immunofluorescence imaging
Measured: nuclear SOX9
Tested at: 10 µM
Time: 12 h
Notes: mean of 2 replicates
Baseline: DMSO control
Direction: higher = more nuclear SOX9
For `CC(=O)O[C@]1(C(C)=O)CC[C@H]2[C@@H]3CCC4=CC(=O)CCC4=C3[C@@H](c3ccc(N(C)C)cc3)C[C@@]21C`, “nuclear SOX9 intensity” read 115 % of DMSO.
`Cc1cc(C)c(NC(=O)C2CC3CCC2C3)c(C)c1` (stereo not drawn) — result for “nuclear SOX9 intensity”: 93.5 % of DMSO.
`CN(C)CCCSC(=N)N` — result for “nuclear SOX9 intensity”: 97.4 % of DMSO.
Under “nuclear SOX9 intensity”, `Cc1ncc(CO)c(CO)c1O` is recorded as 95.9 % of DMSO.
Under “nuclear SOX9 intensity”, `COc1ccc(C2CC(c3ccccc3)=NN2c2ccc(S(N)(=O)=O)cc2)cc1` (stereo not drawn) is recorded as 110 % of DMSO.
`CCc1ccc2c(-c3cccc(Cl)c3)nc(=O)n(CC)c2n1` — result for “nuclear SOX9 intensity”: 103 % of DMSO.

Series 3
Compound: Cc1ncc(-c2cc(Cl)ccc2F)cc1-n1c(=O)n(CC(N)=O)c2ccccc21
Tested at: 1 µM
Baseline: DMSO
It gave 98.5% for viability (sample B colorectal tumour organoid; replicate 2).
It gave 106% for viability (sample C colorectal tumour organoid; replicate 1).
It gave 129% for viability (sample B colorectal tumour organoid; replicate 1).
colorectal tumour organoids — viability: 108%.
For sample BA colorectal tumour organoid: viability read 122%.
It gave 106% for viability (sample C colorectal tumour organoid; replicate 2).

Series 4
Structure (SMILES): CC(=O)N[C@@H](Cc1c[nH]c2ccccc12)C(=O)N[C@@H](CCC(=O)C=[N+]=[N-])C(=O)OC(C)C
Route: subcutaneous
Time: 5 days
UPLC-MS/MS, measured: hypotaurine; EL4, C57BL/6 CES1-/- mice, EL4 tumour, tumour; 0.3 mg/kg/day DON equivalent, normalised to tissue mass; higher = more metabolite — “metabolite peak intensity”: 990000 a.u. and 563000 a.u. and 1.67e+06 a.u. and 1.23e+06 a.u. and 955000 a.u. and 1.62e+06 a.u.
For LC-MS/MS, measured: nicotinamide riboside; C57BL/6 CES1-/- mice, EL4 tumour; 0.3 mg/kg DON equivalent: “metabolite peak intensity” read 1.1e+06 a.u. and 1.03e+06 a.u. and 972000 a.u. and 911000 a.u. and 931000 a.u. and 1.24e+06 a.u.
For UPLC-MS/MS metabolomics, measured: N-acetylthreonine; C57BL/6 CES1-/- mice, EL4 tumour, EL4 tumour; 0.3 mg/kg/day DON equivalent, normalised to tissue mass; higher = more metabolite: “metabolite peak intensity” read 1.86e+06 a.u. and 1.91e+06 a.u. and 1.62e+06 a.u. and 1.94e+06 a.u. and 1.74e+06 a.u.
It gave 5.96e+07 a.u. and 8.44e+07 a.u. and 7.68e+07 a.u. and 6.41e+07 a.u. and 4.94e+07 a.u. and 7.9e+07 a.u. for “metabolite peak intensity” (UPLC-MS/MS, measured: gulonate; EL4, C57BL/6 CES1-/- mice, EL4 tumour, tumour; 0.3 mg/kg/day DON equivalent, normalised to tissue mass; higher = more metabolite).
For UPLC-MS/MS, measured: isovalerylcarnitine; EL4, C57BL/6 CES1-/- mice, EL4 tumour, tumour; 0.3 mg/kg/day DON equivalent, normalised to tissue mass; higher = more metabolite: “metabolite peak intensity” read 2.25e+07 a.u. and 8.42e+06 a.u. and 1.66e+07 a.u. and 1.22e+07 a.u. and 1.96e+07 a.u. and 2.61e+07 a.u.
The “metabolite peak intensity” was 1.41e+06 a.u. and 1.48e+06 a.u. and 1.4e+06 a.u. and 1.07e+06 a.u. and 1.51e+06 a.u. and 1.19e+06 a.u. (UPLC-MS/MS, measured: hydroxy-N6,N6,N6-trimethyllysine; EL4, C57BL/6 CES1-/- mice, EL4 tumour, tumour; 0.3 mg/kg/day DON equivalent, normalised to tissue mass; higher = more metabolite).

Repeated from above (series 2):
For `CC(=O)O[C@]1(C(C)=O)CC[C@H]2[C@@H]3CCC4=CC(=O)CCC4=C3[C@@H](c3ccc(N(C)C)cc3)C[C@@]21C`, “nuclear SOX9 intensity” read 115 % of DMSO.
`Cc1cc(C)c(NC(=O)C2CC3CCC2C3)c(C)c1` (stereo not drawn) — result for “nuclear SOX9 intensity”: 93.5 % of DMSO.
`CN(C)CCCSC(=N)N` — result for “nuclear SOX9 intensity”: 97.4 % of DMSO.
